# Measured values from different studies.
# Numbers after ± are the reported error.
Structure (SMILES),cell line,assay,system,conditions,IC50
CCOc1ccccc1-n1c(CN2CCNCC2)nc2ccccc2c1=O,LN-18,cell growth or viability,,72 h,0.516 µM
CC(C)C12OC1C1OC13C1(C)CCC4=C(COC4=O)C1CC1OC13C2OC(=O)CCCOC1OC(CO)C(O)C(O)C1O (centres unmarked),primary normal human cells,"cell viability, XTT",,,6.8 µM
CC[C@H](C)[C@@H]1NC(=O)[C@@H]2CCCN2C(=O)[C@H](C)NC(=O)[C@H](CC(C)C)NC(=O)[C@@H]2CCCN2C(=O)[C@H](C)NC(=O)[C@@H]2CSSC[C@H](NC(=O)[C@H](C)NC(=O)[C@H](C)NC(=O)[C@H](Cc3ccc(O)cc3)NC(=O)[C@@H]3CCCN3C(=O)CNC(=O)[C@H](Cc3c[nH]c4ccccc34)NC1=O)C(=O)N[C@@H](CC(C)C)C(=O)N[C@@H](CO)C(=O)N[C@@H](C)C(=O)N[C@H]1CSSC[C@H](NC(=O)[C@H](C(C)C)NC(=O)[C@@H]3CCCN3C(=O)CNC(=O)CNC(=O)CNC(=O)[C@H](C)NC(=O)[C@H](C)NC(=O)[C@H](CC(C)C)NC1=O)C(=O)N[C@@H](CC(C)C)C(=O)N[C@@H](C)C(=O)N[C@@H](C(C)C)C(=O)N2,LN-18,,,,> 128 µg/mL
CC(=O)N[C@H](C(=O)N[C@@H](CCCNC(=N)N)C(=O)N[C@@H](CCCCN)C(=O)N[C@@H](CCCNC(=N)N)C(=O)N[C@@]1(C)CCCC=CCCC[C@@](C)(C(=O)N[C@@H](CC(C)C)C(=O)N[C@@H](CCC(N)=O)C(=O)N[C@@H](CCC(=O)O)C(=O)N[C@@H](CCCNC(=N)N)C(=O)N[C@@H](CCC(=O)O)C(=O)N[C@@H](CC(C)C)C(=O)N[C@H](C(=O)N[C@@H](CCC(=O)O)C(N)=O)C(C)C)NC(=O)[C@H](CCCNC(=N)N)NC(=O)[C@H](CCCNC(=N)N)NC(=O)[C@H](CC(C)C)NC1=O)C(C)C,SK-N-MC (no EGFR or ErbB2-4),"cell viability, ATP luminescence",,18 h,~80 µM
Cc1cc(Oc2nc(N3CC[C@@H](c4ccncc4)C3)ncc2F)[nH]n1,Ramos,cell proliferation,blood cancer,,40.7 µM
CC(C)C12OC1C1OC13C1(C)CCC4=C(COC4=O)C1CC1OC13C2OC(=O)CCC(=O)OC1OC(CO)C(O)C(O)C1O (centres unmarked),SK-MEL3,"cell growth or viability, XTT",,47 h,0.42 µM
O=C(c1cc(Cc2n[nH]c(=O)c3ccccc23)ccc1F)N1CC(CNC2CC2)C1,human bone marrow progenitor cells,total colony formation,,14 days,0.101 µM
CC(=O)N[C@H](C(=O)N[C@@H](CCCNC(=N)N)C(=O)N[C@@H](CCCCN)C(=O)N[C@@H](CCCNC(=N)N)C(=O)N[C@H](C(=O)N[C@@H](CC(C)C)C(=O)N[C@@H](CCCNC(=N)N)C(=O)N[C@@]1(C)CCCC=CCCC[C@@](C)(C(=O)N[C@@H](CCCNC(=N)N)C(=O)N[C@@H](CCC(=O)O)C(=O)N[C@@H](CC(C)C)C(=O)N[C@H](C(=O)N[C@@H](CCC(=O)O)C(N)=O)C(C)C)NC(=O)[C@H](CCC(N)=O)NC(=O)[C@H](CC(C)C)NC(=O)[C@H](CC(C)C)NC1=O)[C@@H](C)O)C(C)C,H2030 (wild-type EGFR),"cell viability, ATP luminescence",,18 h,2.44 ± 0.88 µM
N[C@H](C(=O)N1CCCC1)C1CCN(c2nccc3c(-c4ncc(Cl)cc4Cl)cccc23)CC1,human isolated neutrophils,"histone H3 citrullination, inhibitor, flow cytometry, refers to: citrullinated histone H3",,added: ionomycin,1.04 µM
CC(=O)N[C@H](C(=O)N[C@@H](CCCNC(=N)N)C(=O)N[C@@H](CCCCN)C(=O)N[C@@H](CCCNC(=N)N)C(=O)N[C@H](C(=O)N[C@@H](CC(C)C)C(=O)N[C@@H](CCCNC(=N)N)C(=O)N[C@]1(C)CCCC=CCCC[C@@](C)(C(=O)N[C@@H](CCC(=O)O)C(=O)N[C@@H](CCCNC(=N)N)C(=O)N[C@@H](CCC(=O)O)C(=O)N[C@@H](CC(C)C)C(=O)N[C@H](C(=O)N[C@@H](CCC(=O)O)C(N)=O)C(C)C)NC(=O)[C@H](CC(C)C)NC(=O)[C@H](CC(C)C)NC1=O)[C@@H](C)O)C(C)C,SK-N-MC (no EGFR or ErbB2-4),"cell viability, ATP luminescence",,18 h,> 10 µM
O=C(O)c1ccc([S][Au][PH](c2ccccc2)(c2ccccc2)[c-]2cccc2)cc1.[Fe+2].c1cc[cH-]c1,renal proximal tubule cells,"cytotoxicity, XTT",,24 h,3.91 ± 0.61 µM
C[C@H]1[C@H](OC(=O)CCC(=O)OCCC2CCN(CC(=O)Nc3ccc([N+](=O)[O-])c(C(F)(F)F)c3)CC2)O[C@@H]2O[C@@]3(C)CC[C@H]4[C@H](C)CC[C@@H]1[C@@]24OO3,MCF-10A,"cell growth or viability, CCK-8",,,27.3 µM
C1N2CN3CN1CP(C2)C3.COc1ccc(C(O)=CC(=O)c2ccc(C(C)(C)C)cc2)cc1.Cc1ccc(C(C)C)cc1.[Ru+2],MIA PaCa-2,cytotoxicity,,dark,0.34 µM
CC(=O)N[C@H](C(=O)N[C@@H](CCCNC(=N)N)C(=O)N[C@@H](CCCCN)C(=O)N[C@@H](CCCNC(=N)N)C(=O)N[C@]1(C)CCCCCCC=CCCC[C@@](C)(C(=O)N[C@@H](CCCNC(=N)N)C(=O)N[C@@H](CCC(=O)O)C(=O)N[C@@H](CC(C)C)C(=O)N[C@H](C(=O)N[C@@H](CCC(=O)O)C(N)=O)C(C)C)NC(=O)[C@H](CCC(N)=O)NC(=O)[C@H](CC(C)C)NC(=O)[C@H](CC(C)C)NC(=O)[C@H](CCCNC(=N)N)NC(=O)[C@H](CCCNC(=N)N)NC(=O)[C@H](CC(C)C)NC1=O)C(C)C,H1975 (EGFR L858R/T790M),cell viability,,"18 h, serum-free",2.24 µM
Cc1ccc(C(C)C)cc1.Cc1ccc(C(C)C)cc1.Cc1ccc(C(C)C)cc1.Cc1ccc(C(C)C)cc1.O=S(=O)(O)C(F)(F)F.O=S(=O)(O)C(F)(F)F.O=S(=O)(O)C(F)(F)F.O=S(=O)(O)C(F)(F)F.c1ccc2c3c4ccccc4c(c2c1)-c1cn(nn1)-c1cc[n+](cc1)[Ru-]1[O]c2ccc4c5c(ccc(c25)=[O+]1)=[O+][Ru-]([O]4)[n+]1ccc(cc1)-n1cc(nn1)-c1c2ccccc2c(c2ccccc12)-c1cn(nn1)-c1cc[n+](cc1)[Ru-]1[O]c2ccc4c5c(ccc(c25)=[O+]1)=[O+][Ru-]([O]4)[n+]1ccc(cc1)-n1cc-3nn1,AGS,"cell growth or viability, MTT",,24 h,2.4 µM
CC(=O)N[C@H](C(=O)N[C@@H](CCCNC(=N)N)C(=O)N[C@@H](CCCCN)C(=O)N[C@@H](CCCNC(=N)N)C(=O)N[C@H](C(=O)N[C@@H](CC(C)C)C(=O)N[C@@H](CCCNC(=N)N)C(=O)N[C@]1(C)CCCCCCC=CCCC[C@@](C)(C(=O)N[C@H](C(=O)N[C@@H](CCC(=O)O)C(N)=O)C(C)C)NC(=O)[C@H](CCC(=O)O)NC(=O)[C@H](CCCNC(=N)N)NC(=O)[C@H](CCC(=O)O)NC(=O)[C@H](CCC(N)=O)NC(=O)[C@H](CC(C)C)NC(=O)[C@H](CC(C)C)NC1=O)[C@@H](C)O)C(C)C,H2030 (wild-type EGFR),"cell viability, ATP luminescence",,18 h,> 100 µM
O=C(Cc1ccc(Br)cc1)N1CCN(CC(OCc2ccc3ccccc3c2)c2ccc(Cl)cc2Cl)CC1 (centres unmarked),MDA-MB-468,"cell growth or viability, MTT",,24 h,19.7 µM
Cc1ccccc1/C=C/C(=O)N[C@@H]1C(=O)N[C@@H](Cc2ccccc2)C(=O)N[C@H](CC(C)C)C(=O)N[C@@H](C(C)C)C(=O)N[C@@H](C)C(=O)N[C@H](CCC(N)=O)C(=O)NCC(=O)N2CCC[C@H]2C(=O)N[C@@H](CCCNC(=N)N)C(=O)N[C@H](Cc2ccccc2)C(=O)O[C@H]1C,HCT-116,,,,> 20 µM
Cc1cc(Nc2nc(C[C@@]3(C(=O)O)CCN(Cc4cccc(Cl)c4F)[C@H](C)C3)cc(C)c2F)[nH]n1,SW756,"cell growth or viability, ATP luminescence",,5 days,> 10 µM
CC(=O)Oc1cccc2c1C(=O)C=CC2=O,HFF-1,"cell growth or viability, MTT",,48 h,7.3 µM
CCC1=C(C)C2=C(c3ccc(C(=O)NCCNC(=O)c4ccc(P(=NC(=O)c5ccccn5)(c5ccccc5)c5ccccc5)cc4)cc3)c3c(C)c(CC)c(C)n3[B-](F)(F)[N+]2=C1C,MCF-10A,"cell growth or viability, MTT",,,> 250 µM
CC(=O)N[C@H](C(=O)N[C@@H](CCCNC(=N)N)C(=O)N[C@@H](CCCCN)C(=O)N[C@@H](CCCNC(=N)N)C(=O)N[C@]1(C)CCCC=CCCC[C@@](C)(C(=O)N[C@@H](CC(C)C)C(=O)N[C@@H](CC(C)C)C(=O)N[C@@H](CCC(N)=O)C(=O)N[C@@H](CCC(=O)O)C(=O)N[C@@H](CCCNC(=N)N)C(=O)N[C@@H](CCC(=O)O)C(=O)N[C@@H](CC(C)C)C(=O)N[C@H](C(=O)N[C@@H](CCC(=O)O)C(N)=O)C(C)C)NC(=O)[C@H](CCCNC(=N)N)NC(=O)[C@H](CC(C)C)NC1=O)C(C)C,SK-N-MC (no EGFR or ErbB2-4),"cell viability, ATP luminescence",,18 h,> 100 µM
Cc1cc(C)cc(COc2cc3c(cc2OCc2cc(C)cc(C)c2)C2CC(O)(Cc4cn(CCOCCOCCOCCOc5cccc6c5C(=O)N(C5CCC(=O)NC5=O)C6=O)nn4)CC(C)N2CC3)c1 (racemic),ASPC1,"cell growth or viability, MTT",,,1.96 µM
